Assay results from different studies.
Compare with care: the assays were run in different laboratories. “And” joins repeats or separate records; there may be more than shown. pIC50: −log10 of the molar value.
GBA2: Beta-glucosidase (GBA2, Homo sapiens, UniProt Q9HCG7)
UniProt Q9HCG7, sequence (whole entry, looked up): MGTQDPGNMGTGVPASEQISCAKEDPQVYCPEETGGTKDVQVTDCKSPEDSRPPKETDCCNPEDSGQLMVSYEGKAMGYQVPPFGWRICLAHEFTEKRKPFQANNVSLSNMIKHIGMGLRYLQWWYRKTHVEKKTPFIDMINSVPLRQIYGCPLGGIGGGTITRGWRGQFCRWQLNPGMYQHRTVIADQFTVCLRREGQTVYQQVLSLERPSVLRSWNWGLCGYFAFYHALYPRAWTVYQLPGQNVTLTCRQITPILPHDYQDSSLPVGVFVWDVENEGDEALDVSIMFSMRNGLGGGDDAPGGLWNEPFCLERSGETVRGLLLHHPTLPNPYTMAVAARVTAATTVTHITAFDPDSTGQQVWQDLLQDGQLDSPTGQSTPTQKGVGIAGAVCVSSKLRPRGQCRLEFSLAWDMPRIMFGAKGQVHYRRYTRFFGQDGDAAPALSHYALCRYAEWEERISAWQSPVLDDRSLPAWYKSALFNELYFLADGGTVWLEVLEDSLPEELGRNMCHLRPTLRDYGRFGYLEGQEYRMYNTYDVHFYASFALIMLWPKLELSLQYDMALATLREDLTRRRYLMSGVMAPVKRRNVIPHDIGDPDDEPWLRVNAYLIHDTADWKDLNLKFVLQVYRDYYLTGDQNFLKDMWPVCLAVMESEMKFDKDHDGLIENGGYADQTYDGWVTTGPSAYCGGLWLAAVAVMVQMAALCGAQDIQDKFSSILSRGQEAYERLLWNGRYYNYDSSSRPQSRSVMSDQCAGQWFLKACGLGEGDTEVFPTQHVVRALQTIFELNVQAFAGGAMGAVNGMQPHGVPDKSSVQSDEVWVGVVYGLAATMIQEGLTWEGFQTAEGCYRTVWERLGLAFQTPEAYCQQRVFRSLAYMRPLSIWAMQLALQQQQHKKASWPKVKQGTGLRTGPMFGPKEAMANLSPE
PPARA ligand-binding domain: Peroxisome proliferator-activated receptor alpha, ligand-binding domain (PPARA, Homo sapiens, UniProt Q07869)
UniProt Q07869, sequence (whole entry, looked up): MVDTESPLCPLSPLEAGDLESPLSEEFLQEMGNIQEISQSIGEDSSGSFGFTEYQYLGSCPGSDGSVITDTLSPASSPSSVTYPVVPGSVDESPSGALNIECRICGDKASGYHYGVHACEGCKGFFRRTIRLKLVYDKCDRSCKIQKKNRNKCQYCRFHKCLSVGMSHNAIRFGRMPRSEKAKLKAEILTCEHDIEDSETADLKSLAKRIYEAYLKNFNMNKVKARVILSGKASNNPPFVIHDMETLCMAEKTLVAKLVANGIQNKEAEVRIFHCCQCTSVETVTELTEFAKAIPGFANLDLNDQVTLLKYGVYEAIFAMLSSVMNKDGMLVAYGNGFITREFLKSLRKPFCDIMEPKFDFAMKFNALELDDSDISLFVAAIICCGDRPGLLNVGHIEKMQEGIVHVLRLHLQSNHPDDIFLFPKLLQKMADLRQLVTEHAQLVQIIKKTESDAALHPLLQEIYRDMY
Chymotrypsinogen A: Chymotrypsinogen A (Bos taurus, UniProt P00766)
UniProt P00591, sequence (whole entry, looked up): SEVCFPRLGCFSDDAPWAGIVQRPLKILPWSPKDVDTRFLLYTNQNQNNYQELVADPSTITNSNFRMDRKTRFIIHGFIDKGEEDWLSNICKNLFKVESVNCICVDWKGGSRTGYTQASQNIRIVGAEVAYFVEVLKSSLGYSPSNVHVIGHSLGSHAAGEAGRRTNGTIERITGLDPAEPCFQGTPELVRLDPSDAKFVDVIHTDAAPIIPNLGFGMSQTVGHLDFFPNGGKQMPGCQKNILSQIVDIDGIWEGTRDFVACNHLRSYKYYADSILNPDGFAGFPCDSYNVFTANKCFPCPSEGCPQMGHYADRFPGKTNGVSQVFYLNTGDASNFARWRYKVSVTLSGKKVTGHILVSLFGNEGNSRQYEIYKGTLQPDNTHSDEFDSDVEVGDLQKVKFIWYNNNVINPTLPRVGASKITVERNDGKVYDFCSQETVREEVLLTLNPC
UniProt P35626, sequence (whole entry, looked up): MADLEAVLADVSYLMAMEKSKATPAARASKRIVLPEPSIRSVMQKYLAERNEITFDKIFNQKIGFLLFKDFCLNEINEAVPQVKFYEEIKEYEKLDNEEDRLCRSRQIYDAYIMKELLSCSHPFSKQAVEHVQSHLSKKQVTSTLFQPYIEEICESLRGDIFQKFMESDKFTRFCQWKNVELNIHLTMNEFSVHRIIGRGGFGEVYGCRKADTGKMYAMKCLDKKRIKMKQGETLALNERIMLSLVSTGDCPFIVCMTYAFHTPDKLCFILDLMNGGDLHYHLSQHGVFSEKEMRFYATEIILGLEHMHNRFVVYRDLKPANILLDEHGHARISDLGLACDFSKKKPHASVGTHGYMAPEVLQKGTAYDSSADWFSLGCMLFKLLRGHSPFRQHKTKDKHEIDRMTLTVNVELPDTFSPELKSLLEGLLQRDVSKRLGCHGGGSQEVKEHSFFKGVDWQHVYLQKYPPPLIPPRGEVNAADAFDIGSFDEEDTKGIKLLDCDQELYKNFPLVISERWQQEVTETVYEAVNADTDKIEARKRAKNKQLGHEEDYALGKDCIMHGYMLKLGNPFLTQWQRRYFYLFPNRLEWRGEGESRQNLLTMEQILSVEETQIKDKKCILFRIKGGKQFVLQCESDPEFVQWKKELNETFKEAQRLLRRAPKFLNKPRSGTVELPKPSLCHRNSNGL
UniProt P04150, sequence (whole entry, looked up): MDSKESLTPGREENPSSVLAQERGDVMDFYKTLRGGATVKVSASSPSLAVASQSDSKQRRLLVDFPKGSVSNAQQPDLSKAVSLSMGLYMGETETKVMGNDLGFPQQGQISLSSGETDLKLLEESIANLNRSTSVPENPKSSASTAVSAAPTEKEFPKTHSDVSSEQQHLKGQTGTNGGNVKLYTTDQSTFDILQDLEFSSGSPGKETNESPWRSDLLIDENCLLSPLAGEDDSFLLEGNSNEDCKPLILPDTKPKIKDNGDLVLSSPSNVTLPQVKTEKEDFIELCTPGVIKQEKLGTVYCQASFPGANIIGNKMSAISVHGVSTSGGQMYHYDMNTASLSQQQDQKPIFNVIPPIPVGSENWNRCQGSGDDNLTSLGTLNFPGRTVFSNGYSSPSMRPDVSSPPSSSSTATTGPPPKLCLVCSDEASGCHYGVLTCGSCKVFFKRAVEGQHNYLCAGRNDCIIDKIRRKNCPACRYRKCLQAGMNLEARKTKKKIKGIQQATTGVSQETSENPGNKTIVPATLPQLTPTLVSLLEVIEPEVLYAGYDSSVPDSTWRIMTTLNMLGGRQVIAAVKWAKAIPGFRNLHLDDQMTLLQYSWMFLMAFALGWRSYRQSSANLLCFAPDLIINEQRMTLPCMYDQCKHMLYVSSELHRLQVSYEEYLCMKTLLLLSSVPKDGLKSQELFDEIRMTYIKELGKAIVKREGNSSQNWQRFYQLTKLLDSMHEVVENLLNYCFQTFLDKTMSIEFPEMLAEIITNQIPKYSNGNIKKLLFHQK
UniProt O14757, sequence (whole entry, looked up): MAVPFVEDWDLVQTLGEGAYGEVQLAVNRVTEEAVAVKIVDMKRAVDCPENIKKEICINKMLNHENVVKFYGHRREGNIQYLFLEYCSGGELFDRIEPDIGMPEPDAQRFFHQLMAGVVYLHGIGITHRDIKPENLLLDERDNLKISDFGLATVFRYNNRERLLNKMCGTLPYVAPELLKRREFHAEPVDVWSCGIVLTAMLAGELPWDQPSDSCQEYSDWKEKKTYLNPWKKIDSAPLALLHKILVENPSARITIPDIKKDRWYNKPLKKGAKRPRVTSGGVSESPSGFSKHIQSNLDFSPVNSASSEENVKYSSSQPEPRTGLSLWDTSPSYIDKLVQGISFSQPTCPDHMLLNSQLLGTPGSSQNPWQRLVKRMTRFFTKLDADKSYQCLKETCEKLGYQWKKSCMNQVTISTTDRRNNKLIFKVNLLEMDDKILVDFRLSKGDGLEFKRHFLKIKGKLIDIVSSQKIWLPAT
UniProt Q8TBX8, sequence (whole entry, looked up): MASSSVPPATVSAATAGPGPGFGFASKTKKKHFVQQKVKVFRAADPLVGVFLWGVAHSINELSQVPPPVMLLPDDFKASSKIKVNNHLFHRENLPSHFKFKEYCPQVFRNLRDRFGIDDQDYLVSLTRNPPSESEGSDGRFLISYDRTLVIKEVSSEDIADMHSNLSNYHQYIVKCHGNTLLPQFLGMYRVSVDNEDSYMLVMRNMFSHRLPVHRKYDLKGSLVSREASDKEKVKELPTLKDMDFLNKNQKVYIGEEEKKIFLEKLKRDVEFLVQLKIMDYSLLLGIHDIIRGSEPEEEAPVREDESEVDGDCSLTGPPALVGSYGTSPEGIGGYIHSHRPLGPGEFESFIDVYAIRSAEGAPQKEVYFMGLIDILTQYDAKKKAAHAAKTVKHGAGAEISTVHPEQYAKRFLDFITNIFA
UniProt P05067, sequence (whole entry, looked up): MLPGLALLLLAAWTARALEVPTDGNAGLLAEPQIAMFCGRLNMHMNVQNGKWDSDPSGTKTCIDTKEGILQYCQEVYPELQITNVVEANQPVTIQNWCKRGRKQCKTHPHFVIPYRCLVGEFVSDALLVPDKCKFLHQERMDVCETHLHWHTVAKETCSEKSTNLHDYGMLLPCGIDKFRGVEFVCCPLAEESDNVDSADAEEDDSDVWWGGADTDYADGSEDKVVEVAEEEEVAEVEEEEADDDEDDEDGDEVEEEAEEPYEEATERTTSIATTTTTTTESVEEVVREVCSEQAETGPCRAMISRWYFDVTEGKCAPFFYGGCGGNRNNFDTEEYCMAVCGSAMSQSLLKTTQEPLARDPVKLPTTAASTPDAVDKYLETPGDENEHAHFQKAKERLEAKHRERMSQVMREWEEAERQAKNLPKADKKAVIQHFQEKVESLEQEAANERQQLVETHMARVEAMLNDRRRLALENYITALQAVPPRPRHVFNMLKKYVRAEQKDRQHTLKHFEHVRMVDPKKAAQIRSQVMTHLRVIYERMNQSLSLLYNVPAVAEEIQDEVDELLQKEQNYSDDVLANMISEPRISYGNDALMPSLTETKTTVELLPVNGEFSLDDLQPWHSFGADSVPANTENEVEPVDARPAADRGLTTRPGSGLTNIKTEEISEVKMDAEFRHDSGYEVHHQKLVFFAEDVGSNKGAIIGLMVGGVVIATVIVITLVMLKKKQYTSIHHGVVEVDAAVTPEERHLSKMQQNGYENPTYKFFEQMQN

The pIC50 of `CC(C)=CCOCCCCCN1C[C@H](O)[C@@H](O)[C@H](O)[C@@H]1CO` is reported as 8.24 (GBA2; inhibitor, 4MU-β-D-glucopyranoside; HEK293T homogenates overexpressing GBA2).
For `Cc1c(Cc2cc(Cl)cc(O[C@H](C)C(=O)O)c2)c2ccc(C(=O)N[C@@H](C)c3ccc(C(C)(C)C)cc3)cc2n1CC(C)C`, the pIC50 was 4.98 (PPARA ligand-binding domain; reporter gene, luciferase reporter; HEK293T, Gal4-PPARα LBD).
With `CC1Cc2ccccc2N1C1=C(c2ccncc2)C(=O)NC1=O` (stereo not drawn) the pIC50 was under 2.90 (Sensor histidine kinase AirS (Staphylococcus aureus, UniProt Q2FX96); autophosphorylation, inhibitor, BODIPY-FL-ATPγS in-gel fluorescence; lower bound of confidence interval).
`CC(=O)NCCNC(=O)c1ccccc1NC(=O)C(C(F)(F)F)C(F)(F)F` has a pIC50 of 3.88 (Chymotrypsinogen A; enzyme activity, inhibitor, fluorescence).
`C[C@H](c1ccccc1)N1C(=O)C2=Nc3cccc(Cl)c3CN2C1=S` has a pIC50 of 6.51 (Serine/threonine-protein kinase Nek1 (NEK1, Homo sapiens, UniProt Q96PY6); enzyme activity, inhibitor).
With `Cc1ccccc1-c1ccc(COCCCCCN2C[C@H](O)[C@@H](O)[C@H](O)[C@H]2CO)cc1` the pIC50 was 9.00 (GBA2; inhibitor, 4MU-β-D-glucopyranoside; HEK293T homogenates overexpressing GBA2).
`Cc1c(COc2cc(OCc3cccc(C#N)c3)c(CNC(C)(CO)CO)cc2Cl)cccc1-c1cccc(OCCCCCCC(=O)NO)c1` has a pIC50 of 7.27 (Histone deacetylase 2 (HDAC2, Homo sapiens, UniProt Q92769); enzyme activity, inhibitor).
The pIC50 of `COc1cc(/C=C/C(=O)C2=C(/C=C/c3ccc(O)c(OC)c3)NC(=S)NC2[c-]2cccc2)ccc1O.[Fe+2].c1cc[cH-]c1` (racemic) is reported as 5.26 (Amyloid-beta precursor protein (APP, Homo sapiens, UniProt P05067); amyloid aggregation, inhibitor, fluorescence; pH 6.9).
The pIC50 of `C[C@@H]1Cc2c([nH]c3ccccc23)[C@@H](c2c(F)cc(/C=C/C(=O)O)cc2F)N1C12CC(C1)C2` is reported as under 5.00 (Glucocorticoid receptor (NR3C1, Homo sapiens, UniProt P04150); GR receptor activity, agonist, cell-based).
`OC[C@@H]1[C@@H](O)[C@H](O)[C@@H](O)CN1CCCCCOCC(COCCCCCN1C[C@H](O)[C@@H](O)[C@H](O)[C@H]1CO)C12CC3CC(CC(C3)C1)C2` gave a pIC50 of 8.10 (GBA2; inhibitor, 4MU-β-D-glucopyranoside; HEK293T homogenates overexpressing GBA2).
`COc1cc(-c2ccc3c(c2)Nc2cccc(Cl)c2NC3=O)ccc1O` has a pIC50 of under 5.00 (Serine/threonine-protein kinase Chk1 (CHEK1, Homo sapiens, UniProt O14757); enzyme activity, inhibitor).
`COc1cc([C@@H]2O[C@@H](c3cc(OC)c(O[C@@H]4O[C@H](CO)[C@@H](O)[C@H](O)[C@H]4O)c(OC)c3)[C@H](CO)[C@H]2CO)cc(OC)c1O` gave a pIC50 of ~4.39 and 4.39 (Pancreatic triacylglycerol lipase (PNLIP, Sus scrofa, UniProt P00591); enzyme activity, inhibitor).
For `Cc1nn(-c2cccc(N)c2)c(=O)c2cnc(Nc3ccc(N4CCNCC4)cc3)nc12`, the pIC50 was under 5.00 (G protein-coupled receptor kinase 3 (GRK3, Homo sapiens, UniProt P35626); enzyme activity, inhibitor).
The pIC50 of `Nc1ncc2c(n1)-c1c([nH]c3ccc(-c4ccc(F)cc4)cc13)CC2` is reported as 7.54 (Phosphatidylinositol 5-phosphate 4-kinase type-2 gamma (PIP4K2C, Homo sapiens, UniProt Q8TBX8); target engagement in cells, BRET).
For `CC(C)(C)c1ccc(C2CC(=O)N2S(=O)(=O)c2cccc(Cl)c2)cc1` (stereo not drawn), the pIC50 was 5.52 (Chymotrypsinogen A; enzyme activity, inhibitor, fluorescence).
`OC[C@@H]1[C@@H](O)[C@H](O)[C@@H](O)CN1CCCCCOCc1ccc(-c2ccccc2F)cc1` gave a pIC50 of 8.70 (GBA2; inhibitor, 4MU-β-D-glucopyranoside; HEK293T homogenates overexpressing GBA2).
`O=C(NCc1ccc(F)cc1)c1ccc(NC(=O)C(C(F)(F)F)C(F)(F)F)cc1` gave a pIC50 of under 4.00 (Chymotrypsinogen A; enzyme activity, inhibitor, fluorescence).
The pIC50 of `Cc1c(Cc2cccc(OC(C)(C)C(=O)O)c2)c2ccc(C(=O)N[C@H](C)c3ccc(C(C)(C)C)cc3)cc2n1C` is reported as 4.86 (PPARA ligand-binding domain; reporter gene, luciferase reporter; HEK293T, Gal4-PPARα LBD).

For quick reference, copied from above:
With `Cc1ccccc1-c1ccc(COCCCCCN2C[C@H](O)[C@@H](O)[C@H](O)[C@H]2CO)cc1` the pIC50 was 9.00 (GBA2; inhibitor, 4MU-β-D-glucopyranoside; HEK293T homogenates overexpressing GBA2).
The pIC50 of `CC(C)=CCOCCCCCN1C[C@H](O)[C@@H](O)[C@H](O)[C@@H]1CO` is reported as 8.24 (GBA2; inhibitor, 4MU-β-D-glucopyranoside; HEK293T homogenates overexpressing GBA2).
